Measurements gathered from unrelated publications.
Compare with care: the assays were run in different laboratories. Several values in a cell are separate wells, animals, samples, runs or records. ± marks the error that the study gave.
KEAP1: Kelch-like ECH-associated protein 1 (KEAP1, Homo sapiens, UniProt Q14145)
UniProt Q14145, sequence (whole entry, looked up): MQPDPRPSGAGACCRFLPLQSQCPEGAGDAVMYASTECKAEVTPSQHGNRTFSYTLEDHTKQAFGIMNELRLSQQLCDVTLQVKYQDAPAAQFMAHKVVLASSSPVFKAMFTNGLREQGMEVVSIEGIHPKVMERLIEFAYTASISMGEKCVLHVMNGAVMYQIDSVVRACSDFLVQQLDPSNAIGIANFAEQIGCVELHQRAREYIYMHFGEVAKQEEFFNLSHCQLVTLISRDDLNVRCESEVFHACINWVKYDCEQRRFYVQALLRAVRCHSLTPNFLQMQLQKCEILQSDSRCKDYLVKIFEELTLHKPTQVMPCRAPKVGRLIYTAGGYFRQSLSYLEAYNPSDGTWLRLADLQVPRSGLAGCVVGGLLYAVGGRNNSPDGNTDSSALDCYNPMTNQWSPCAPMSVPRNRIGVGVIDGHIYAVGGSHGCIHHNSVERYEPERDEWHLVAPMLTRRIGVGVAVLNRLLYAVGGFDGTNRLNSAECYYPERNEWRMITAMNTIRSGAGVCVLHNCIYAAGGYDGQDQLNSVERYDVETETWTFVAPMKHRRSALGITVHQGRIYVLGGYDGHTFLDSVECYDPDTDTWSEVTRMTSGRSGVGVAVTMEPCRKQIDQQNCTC
lasR: Transcriptional activator protein LasR (lasR, Pseudomonas aeruginosa, UniProt P25084)
UniProt P25084, sequence (whole entry, looked up): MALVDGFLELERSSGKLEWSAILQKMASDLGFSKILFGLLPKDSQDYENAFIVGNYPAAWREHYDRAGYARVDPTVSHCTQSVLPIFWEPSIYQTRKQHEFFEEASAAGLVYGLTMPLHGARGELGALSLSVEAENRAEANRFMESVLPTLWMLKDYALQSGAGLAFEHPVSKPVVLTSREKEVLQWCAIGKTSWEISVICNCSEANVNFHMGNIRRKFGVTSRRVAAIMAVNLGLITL
sdiA: Regulatory protein SdiA (sdiA, Escherichia coli, UniProt P07026)
UniProt P07026, sequence (whole entry, looked up): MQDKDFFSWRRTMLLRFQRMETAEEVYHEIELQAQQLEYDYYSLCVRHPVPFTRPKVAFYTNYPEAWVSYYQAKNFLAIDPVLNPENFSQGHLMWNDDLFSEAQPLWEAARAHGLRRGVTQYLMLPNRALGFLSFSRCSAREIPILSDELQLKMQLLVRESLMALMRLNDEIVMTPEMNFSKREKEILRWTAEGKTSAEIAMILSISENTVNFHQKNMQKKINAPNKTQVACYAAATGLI
Oprm1: Mu-type opioid receptor (Oprm1, Rattus norvegicus, UniProt P33535)
UniProt P33535, sequence (whole entry, looked up): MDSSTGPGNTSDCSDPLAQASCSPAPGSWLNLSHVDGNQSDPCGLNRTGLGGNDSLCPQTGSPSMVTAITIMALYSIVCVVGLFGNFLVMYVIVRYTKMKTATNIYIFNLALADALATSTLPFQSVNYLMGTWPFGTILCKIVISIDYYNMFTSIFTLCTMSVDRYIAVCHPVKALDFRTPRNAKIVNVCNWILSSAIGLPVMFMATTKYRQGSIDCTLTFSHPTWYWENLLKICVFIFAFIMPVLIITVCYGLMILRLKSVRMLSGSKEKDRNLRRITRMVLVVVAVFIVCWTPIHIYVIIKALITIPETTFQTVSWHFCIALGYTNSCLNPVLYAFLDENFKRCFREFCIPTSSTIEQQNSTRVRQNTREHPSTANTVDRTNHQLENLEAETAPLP
Uncharacterized hydrolase SAUSA300_2518: Uncharacterized hydrolase SAUSA300_2518 (Staphylococcus aureus, UniProt Q2FDS6)
UniProt D0VWV4, sequence (whole entry, looked up): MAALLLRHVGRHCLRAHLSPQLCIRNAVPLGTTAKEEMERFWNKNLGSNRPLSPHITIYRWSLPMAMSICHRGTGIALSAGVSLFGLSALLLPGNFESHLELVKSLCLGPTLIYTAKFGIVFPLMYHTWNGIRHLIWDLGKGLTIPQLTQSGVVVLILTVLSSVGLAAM
UniProt Q007T0, sequence (whole entry, looked up): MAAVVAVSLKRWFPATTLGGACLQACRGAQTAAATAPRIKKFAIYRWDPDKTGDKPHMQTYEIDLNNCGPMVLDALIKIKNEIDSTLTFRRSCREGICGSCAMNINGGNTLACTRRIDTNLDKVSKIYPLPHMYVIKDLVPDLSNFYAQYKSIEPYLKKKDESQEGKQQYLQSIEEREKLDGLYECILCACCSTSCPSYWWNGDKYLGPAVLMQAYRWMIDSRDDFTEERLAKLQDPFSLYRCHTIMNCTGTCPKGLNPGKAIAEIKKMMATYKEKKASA
UniProt Q2FDS6, sequence (whole entry, looked up): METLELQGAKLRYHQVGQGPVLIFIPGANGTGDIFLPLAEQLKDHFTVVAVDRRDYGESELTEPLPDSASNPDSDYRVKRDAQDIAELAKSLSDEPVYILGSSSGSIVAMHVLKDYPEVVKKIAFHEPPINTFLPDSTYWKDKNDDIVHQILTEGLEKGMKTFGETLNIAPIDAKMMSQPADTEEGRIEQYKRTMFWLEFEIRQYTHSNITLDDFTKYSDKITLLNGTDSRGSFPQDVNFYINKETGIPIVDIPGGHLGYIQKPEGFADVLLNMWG
UniProt A5GZW8, sequence (whole entry, looked up): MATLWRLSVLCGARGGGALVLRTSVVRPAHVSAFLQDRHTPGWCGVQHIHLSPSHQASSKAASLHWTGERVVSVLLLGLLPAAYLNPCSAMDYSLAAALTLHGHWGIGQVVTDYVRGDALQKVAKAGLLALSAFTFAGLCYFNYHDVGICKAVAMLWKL
UniProt P21396, sequence (whole entry, looked up): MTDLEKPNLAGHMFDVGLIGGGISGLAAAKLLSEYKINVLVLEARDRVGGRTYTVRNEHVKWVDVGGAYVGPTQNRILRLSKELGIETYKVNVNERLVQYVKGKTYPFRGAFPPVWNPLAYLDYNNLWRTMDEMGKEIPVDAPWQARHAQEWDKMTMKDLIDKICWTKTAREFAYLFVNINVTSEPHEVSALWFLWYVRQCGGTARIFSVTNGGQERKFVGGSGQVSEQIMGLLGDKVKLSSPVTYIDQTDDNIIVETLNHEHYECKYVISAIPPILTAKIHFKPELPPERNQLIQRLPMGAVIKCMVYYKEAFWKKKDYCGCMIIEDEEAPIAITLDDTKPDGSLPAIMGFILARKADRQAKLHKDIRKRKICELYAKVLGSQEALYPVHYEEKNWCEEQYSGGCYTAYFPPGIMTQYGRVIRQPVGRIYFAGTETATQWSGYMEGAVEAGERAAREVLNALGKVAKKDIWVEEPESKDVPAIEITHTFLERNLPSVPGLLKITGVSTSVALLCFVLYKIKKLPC
UniProt Q9Y2J8, sequence (whole entry, looked up): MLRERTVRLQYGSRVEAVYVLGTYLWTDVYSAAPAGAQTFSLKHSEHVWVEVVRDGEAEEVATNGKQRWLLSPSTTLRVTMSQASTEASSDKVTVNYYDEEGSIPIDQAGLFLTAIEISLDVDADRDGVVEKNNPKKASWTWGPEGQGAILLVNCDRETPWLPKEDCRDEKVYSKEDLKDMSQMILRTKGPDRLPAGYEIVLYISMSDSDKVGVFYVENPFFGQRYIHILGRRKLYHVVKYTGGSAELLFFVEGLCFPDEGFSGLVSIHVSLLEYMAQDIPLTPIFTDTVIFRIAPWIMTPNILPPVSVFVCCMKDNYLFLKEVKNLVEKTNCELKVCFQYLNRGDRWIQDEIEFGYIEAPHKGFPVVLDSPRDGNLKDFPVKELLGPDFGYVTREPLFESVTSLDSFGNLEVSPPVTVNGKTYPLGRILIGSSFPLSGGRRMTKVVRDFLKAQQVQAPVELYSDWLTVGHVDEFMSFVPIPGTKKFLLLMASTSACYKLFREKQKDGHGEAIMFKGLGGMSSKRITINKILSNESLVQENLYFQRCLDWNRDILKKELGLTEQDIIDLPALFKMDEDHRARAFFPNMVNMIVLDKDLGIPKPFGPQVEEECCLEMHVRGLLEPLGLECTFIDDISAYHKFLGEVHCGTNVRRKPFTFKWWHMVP
UniProt P14616, sequence (whole entry, looked up): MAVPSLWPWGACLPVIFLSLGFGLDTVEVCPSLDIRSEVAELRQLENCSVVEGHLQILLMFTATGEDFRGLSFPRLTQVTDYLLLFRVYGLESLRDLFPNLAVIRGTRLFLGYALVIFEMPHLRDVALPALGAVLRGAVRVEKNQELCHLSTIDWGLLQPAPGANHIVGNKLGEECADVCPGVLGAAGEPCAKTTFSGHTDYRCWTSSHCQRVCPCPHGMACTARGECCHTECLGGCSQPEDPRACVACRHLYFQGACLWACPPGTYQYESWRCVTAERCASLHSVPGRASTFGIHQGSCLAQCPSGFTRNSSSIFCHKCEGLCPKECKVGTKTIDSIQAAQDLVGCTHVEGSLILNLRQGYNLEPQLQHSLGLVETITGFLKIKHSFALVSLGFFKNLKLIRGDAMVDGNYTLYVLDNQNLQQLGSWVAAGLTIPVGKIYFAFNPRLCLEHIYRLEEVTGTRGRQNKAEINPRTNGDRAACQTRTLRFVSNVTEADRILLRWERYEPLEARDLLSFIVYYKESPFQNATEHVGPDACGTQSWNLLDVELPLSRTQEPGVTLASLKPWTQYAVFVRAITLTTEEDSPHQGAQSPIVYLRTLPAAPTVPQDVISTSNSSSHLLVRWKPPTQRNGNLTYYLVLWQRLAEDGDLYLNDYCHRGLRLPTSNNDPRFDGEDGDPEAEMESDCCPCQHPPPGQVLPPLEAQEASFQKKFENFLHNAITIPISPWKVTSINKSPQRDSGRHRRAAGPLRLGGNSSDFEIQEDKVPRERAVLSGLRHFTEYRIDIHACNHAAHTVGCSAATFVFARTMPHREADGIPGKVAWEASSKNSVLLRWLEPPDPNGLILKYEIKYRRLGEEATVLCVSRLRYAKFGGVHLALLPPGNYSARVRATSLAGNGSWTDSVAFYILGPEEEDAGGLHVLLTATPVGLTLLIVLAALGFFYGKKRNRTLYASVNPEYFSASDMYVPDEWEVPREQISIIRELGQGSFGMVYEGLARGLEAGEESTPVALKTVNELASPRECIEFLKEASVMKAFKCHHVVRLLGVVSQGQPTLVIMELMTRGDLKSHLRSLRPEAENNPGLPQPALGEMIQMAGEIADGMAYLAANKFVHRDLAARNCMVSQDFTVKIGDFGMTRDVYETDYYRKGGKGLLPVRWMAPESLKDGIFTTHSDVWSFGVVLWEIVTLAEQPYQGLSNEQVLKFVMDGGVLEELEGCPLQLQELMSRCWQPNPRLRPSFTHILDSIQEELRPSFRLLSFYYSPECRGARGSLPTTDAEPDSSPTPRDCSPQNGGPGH

| SMILES | target | test | system | conditions | how to read | quantity | result |
| --- | --- | --- | --- | --- | --- | --- | --- |
| CSCC[C@@H]1NC(=O)[C@H](Cc2ccccc2)NC(=O)[C@@H](NC(=O)[C@H](C)N)CSC(=O)[C@H](C(C)C)NC(=O)[C@H](Cc2ccccc2)NC1=O | Histidine kinase AgrC (Listeria monocytogenes, UniProt A8E0G3) | agr reporter gene, agonist |  |  |  | concentration for full activation | 1 µM |
| CC(C)[C@@H]1NC(=O)[C@H](CC(N)=O)NC(=O)CNC(=O)[C@H](CC(N)=O)NC(=O)[C@H](C)NC(=O)[C@H](CC(=O)O)NC(=O)[C@H]([C@@H](C)O)NC(=O)[C@H](CCC(=O)O)NC(=O)CNC(=O)[C@H]([C@@H](C)O)NC(=O)[C@H](CCC(=O)O)NC(=O)[C@H](CCC(=O)O)NC(=O)[C@H](CC(=O)O)NC1=O | KEAP1 | Keap1-Nrf2 binding, inhibitor, competitive FP |  | 100 µM, 30 min, with: Nrf2 peptide probe | lower = stronger inhibition | fluorescence polarization | 0.111 a.u. and 0.03 a.u. |
| CN(C)[C@H]1C[C@@]23CC[C@@]4(O2)C(=CC[C@]2(C)[C@@H](c5ccc6ccncc6c5)CC[C@H]24)C=C3[C@@H](O)[C@@H]1O | CSNK1A1 (Homo sapiens, UniProt P48729) | ATP probe labelling, inhibitor, KiNativ profiling |  | 0.1 µM |  | inhibition | 1.6% |
| CS(C)(=O)=Nc1ccc(-c2ccc(-c3nc4cc(O[C@@H]5CO[C@H]6[C@@H]5OC[C@H]6O)[nH]c4cc3F)cc2)cc1 | PDGFRA (Homo sapiens, UniProt P16234) | enzyme activity, inhibitor |  | 10 µM |  | inhibition | -6% |
| CCCCCCCCCC(=O)NC1CCCC1 | lasR | reporter gene, agonist | Escherichia coli JLD271 | 10 µM, pSC11 and pJN105L plasmids | baseline: OdDHL at same concentration | agonist activity | 20% |
| O=C(O)c1ccc(-c2nc(-c3ccccc3Cl)c3sccn23)cc1 | Maoa (Rattus norvegicus, UniProt P21396) | radioligand binding, safety screen panel |  | 10 µM | baseline: control | specific binding | 93% and 97% |
| O=C1C=C(Br)/C(=C/Br)O1 | lasR | reporter gene, antagonist | Escherichia coli, JLD271 with LasR plasmid | concentration not given, with: OdDHL 2 nM |  | antagonist activity | inactive |
| Cc1ccc(NCCN(C)C)c2c(=O)c3cc(O)ccc3sc12 | Tumor susceptibility gene 101 protein (Homo sapiens, UniProt Q99816) | thermal stability |  | 800 µM |  | ΔTm | 11.1 °C |
| CC(C)C[C@@H]1NC(=O)[C@H](C(C)C)NC(=O)[C@H](CCC(=O)O)NC(=O)CNC(=O)[C@H]([C@@H](C)O)NC(=O)[C@H](CCC(=O)O)NC(=O)[C@H](CCC(=O)O)NC(=O)[C@H](CC(=O)O)NC(=O)[C@H](C(C)C)NC(=O)[C@H]([C@@H](C)O)NC(=O)CNC(=O)[C@H](CC(=O)O)NC(=O)[C@@H]2CCCN2C1=O | KEAP1 | Keap1-Nrf2 binding, inhibitor, competitive FP |  | 6.25 µM, 30 min, with: Nrf2 peptide probe | lower = stronger inhibition | fluorescence polarization | 0.0671 a.u. and 0.203 a.u. |
| CCNC(=S)NN=Cc1c2ccccc2cc2ccccc12.Cc1ccc(C(C)C)cc1.[Cl-].[Cl-].[Ru+2] | Albumin (ALB, Homo sapiens, UniProt P02768) | modified Stern-Volmer |  | 308 K |  | binding constant | 13.7 ± 0.02 10⁴ M⁻¹ |
| COc1ccc(CC(=O)N[C@H]2CCOC2=O)cc1 | sdiA |  |  |  |  | Emax | 99.8% |
| C[C@H](NCc1ccc(-c2ccc(C(F)(F)F)cc2)cc1)C(N)=O | Cathepsin G (CTSG, Homo sapiens, UniProt P08311) | enzyme activity |  | 1 µM, with: 20.0 µM Suc-Ala-Ala-Pro-Phe-AMC |  | inhibition | 0% |
| CCCCCCCCCC(=O)CC(=O)Nc1ccccc1 | lasR | reporter gene, agonist | Escherichia coli JLD271 | 10 µM, pSC11 and pJN105L plasmids | baseline: OdDHL at same concentration | agonist activity | 30% |
| C[C@@H](O)[C@@H]1CN([C@@H](CC2CCCCC2)CN2CCC[C@H]2CN2CCNC[C@@H]2Cc2ccc3ccccc3c2)CCN1CCc1ccc(Cl)c(Cl)c1 | Oprm1 | radioligand binding | rat brain membranes | 500 nM, pH 7.5, 25 °C, with: 0.87 nM [3H]DAMGO |  | remaining binding | 103 ± 3.6% |
| O=C(Cc1ccccc1)N[C@H]1CCSC1=O | sdiA |  |  |  |  | Emax | 89.4% |
| CCCCCCCCCNC(=O)CC(=O)c1ccccc1 | lasR | reporter gene, antagonist |  |  | baseline: IC50 PAO-JP2 over E. coli JLD271 | potency ratio | 2.3 |

| SMILES | target | test | system | conditions | how to read | quantity | result |
| --- | --- | --- | --- | --- | --- | --- | --- |
| CCn1nc(Cl)c2c1-c1cnc(N)c(c1)O[C@H](C)c1cc(F)ccc1-c1nn(C)cc1C2 | INSRR (Homo sapiens, UniProt P14616) | kinase activity, inhibitor |  |  | baseline: IC50 INSRR over IC50 ALK | selectivity ratio | 231 fold |
| CC(C)CC(O)(CC(C)C)c1cn(C(=O)N2CCCC2)nn1 | Prolyl endopeptidase (Mus musculus, UniProt Q9QUR6) |  | mouse, brain | concentration not given | baseline: vehicle over compound | activity-based probe labelling ratio | 1.19 |
| O=S(=O)(F)c1cccc2c1OCC2 | Uncharacterized hydrolase SAUSA300_2518 | enzyme activity, inhibitor, fluorogenic substrate |  | 0.05 µM |  | remaining activity | 112% |
| CC(C)[C@H]1NC(=O)C[C@H]2/C=C/CCSSC[C@@H](NC1=O)C(=O)N[C@H](Cc1cccc3ccccc13)C(=O)NCC(=O)O2 | FLT3 (Homo sapiens, UniProt P36888) | enzyme activity, inhibitor |  | 10 µM |  | inhibition | 0.9% |
| Cc1ccc(NC(=O)CCc2cccc(NC3=CC(=O)N(C4CCC(=O)NC4=O)C3=O)c2)cc1Cl (stereo not shown) | CRBN/Zinc finger protein Helios (Homo sapiens, UniProt Q96SW2+Q9UKS7) | degrader, quantitative proteomics, refers to: protein abundance | Jurkat | 1 µM, 4 h | baseline: DMSO | log2 fold change | -2.43 |
| N[C@H](C(=O)N1CCCC1)C1CCN(c2nccc3c(-c4ncc(Cl)cc4Cl)cccc23)CC1 | PADI2 (Homo sapiens, UniProt Q9Y2J8) | enzyme activity |  | 0.6144 µM, low-affinity site, with: Ca2+ 0.25 mM |  | kcat | 0.175 s⁻¹ and 0.117 s⁻¹ |
| CN(C)[C@H](CNC(=O)/C=C/c1cccc2ccccc12)Cc1ccc(O)cc1 | Mu-type opioid receptor, with GoB (OPRM1, Homo sapiens, UniProt P35372) | receptor activation, agonist |  |  |  | Emax | 85 ± 7% |
| Oc1ccc(C[C@@H]2CN([C@@H](CC3CCCCC3)CN3CCC[C@H]3CN3CCNC[C@@H]3Cc3ccc4ccccc4c3)CCN2CCc2ccc(Cl)c(Cl)c2)cc1 | Oprm1 | radioligand binding | rat brain membranes | 500 nM, pH 7.5, 25 °C, with: 0.87 nM [3H]DAMGO |  | remaining binding | 113 ± 6.78% |
| OB(O)c1ccc(OCc2ccccc2)nc1F | CELA1 (Sus scrofa, UniProt P00772) | pNA substrate hydrolysis |  |  | baseline: Ki protease over Ki AmpC | selectivity ratio | 1380 |
| CON(C(=O)c1cn(C)nc1C(F)F)C(C)Cc1c(Cl)cc(Cl)cc1Cl (stereo not shown) | SDHD/SDHC/SDHB (Sus scrofa, UniProt A5GZW8+D0VWV4+Q007T0) | enzyme activity, inhibitor, DCIP reduction | pig | 0.3 µM, with: DCIP 20 µM |  | reaction velocity | 0.00443 µM/s and 0.00393 µM/s and 0.00394 µM/s |
| C=CC(=O)NC[C@H](NC(=O)[C@H](CC1CCCCC1)NC(=O)[C@H](CCC(N)=O)NC(C)=O)C(=O)N[C@@H](CC(C)C)C(=O)N[C@@H](Cc1ccccc1)C(=O)O | Beta sliding clamp (Escherichia coli, UniProt P0A988) | binding, isothermal titration calorimetry |  | 25 °C |  | -TΔS | 3.7 kcal/mol |
| CCCC[C@H]1CNCCN1C[C@@H]1CCCN1C[C@@H](Cc1ccc2ccccc2c1)N1CCN(CCCC2CCCC2)[C@H]([C@H](C)CC)C1 | Oprm1 | radioligand binding | rat brain membranes | 500 nM, pH 7.5, 25 °C, with: 0.87 nM [3H]DAMGO |  | remaining binding | 107 ± 7.04% |
| COc1ccccc1-c1n[nH]c2nc(N[C@H]3CC[C@H](NS(=O)(=O)CC(C)C)CC3)ncc12 | cyclin 9 (Leishmania donovani, UniProt A0A2D1QVA3) | competitor, bead pull-down competition | Leishmania donovani extract | 0.016 µM | baseline: vehicle | remaining binding | 10% |
| COc1cc2c(cc1S(=O)(=O)F)C(=O)NCCC2 | Uncharacterized hydrolase SAUSA300_2518 | enzyme activity, inhibitor, fluorogenic substrate |  | 0.01 µM |  | remaining activity | 96.6% and 94.6% and 100% |
| O=C1NC(=O)c2c1c1cc(F)c[n+]3c1c1c2c2cc(O)ccc2[n]1[Ru-4]312([N]=C=S)[S+]3CC[S+]1CC[S+]2CC3 (stereo not shown) | EPHA3 (Homo sapiens, UniProt P29320) | enzyme activity |  | 100 nM, human enzyme, with: 10 µM ATP | baseline: untreated | remaining activity | 110% |

Repeated from above:
| SMILES | target | test | system | conditions | how to read | quantity | result |
| --- | --- | --- | --- | --- | --- | --- | --- |
| CC(C)[C@H]1NC(=O)C[C@H]2/C=C/CCSSC[C@@H](NC1=O)C(=O)N[C@H](Cc1cccc3ccccc13)C(=O)NCC(=O)O2 | FLT3 (Homo sapiens, UniProt P36888) | enzyme activity, inhibitor |  | 10 µM |  | inhibition | 0.9% |
| CS(C)(=O)=Nc1ccc(-c2ccc(-c3nc4cc(O[C@@H]5CO[C@H]6[C@@H]5OC[C@H]6O)[nH]c4cc3F)cc2)cc1 | PDGFRA (Homo sapiens, UniProt P16234) | enzyme activity, inhibitor |  | 10 µM |  | inhibition | -6% |
| CN(C)[C@H](CNC(=O)/C=C/c1cccc2ccccc12)Cc1ccc(O)cc1 | Mu-type opioid receptor, with GoB (OPRM1, Homo sapiens, UniProt P35372) | receptor activation, agonist |  |  |  | Emax | 85 ± 7% |
